Assay results gathered from unrelated publications.
Every numbered part comes from another study and shows a few of its results, in no order. Substitutions count along the parent as printed.

Study 1
Target: Sal-like protein 4, full length isoform B (SALL4, Homo sapiens, UniProt Q9UJQ4-2, residues 1-616)
Technique: universal PBM
Form: double-stranded DNA, one strand shown
Sample: in vitro
Tested at: not given
Notes: 8-mer, flanks averaged, mean of replicates
Reading: higher = stronger binding
Endpoint: E-score
CCCCGTGC: -0.322
CCTCACCG: -0.281
GGCGATGA: -0.134
CAAACATA: 0.191
AGCCCGAG: -0.224
ACCGTTCC: -0.134
CCAAGGTC: -0.136
AGTGTCAG: -0.114
AGTTTTCC: -0.0428
CGTAATGA: 0.0145
AGGTACAT: 0.149
CTGGTATC: -0.071
TAAGTACA: 0.281
CTCTCGGA: -0.131
GCGACCAC: -0.239
AGTCAATA: 0.184
AATGCATA: 0.259
GACGGGAA: -0.0556
AATGTACA: 0.209
CTCGTTGC: -0.0583
GTCGAGAC: -0.0325
CCTACTTA: 0.0179
TTAGCGAA: 0.0626
AGGCGAGC: -0.274

Study 2
Target: CCND3, cyclin fold, Cln2 fusion (human)
Technique: yeast growth competition, sequencing
Sample: yeast
Notes: weak parent motif
Baseline: not given
Reading: higher = stronger binding
Endpoint: normalised enrichment score
Starting sequence: CDC6 docking peptide (human); TLKGRRLVFDNQL
TLKGRTLVFDNQL [R6T]: 0.126
TLRGRRLVFDNQL [K3R]: 0.159
TLKARRLVFDNQL [G4A]: 0.133
TRKGRRLVFDNQL [L2R]: 0.253
TLKGRRLVYDNQL [F9Y]: 0.0815
TLKGRRLVFDNQK [L13K]: 0.0526
TLKGRRLVFDLQL [N11L]: 0.125
TLKGRRLVFDGQL [N11G]: 0.0499
TLKGRFLVFDNQL [R6F]: 0.0509
TLKGRRLVFDFQL [N11F]: 0.176
PLKGRRLVFDNQL [T1P]: 0.106
TLMGRRLVFDNQL [K3M]: 0.144
TLKGRRLCFDNQL [V8C]: 0.155
TLKGRRLVFDNQT [L13T]: 0.00871
YLKGRRLVFDNQL [T1Y]: 0.0384
TLKGRRDVFDNQL [L7D]: 0.109
TLKGRRLVFNNQL [D10N]: 0.182
TLWGRRLVFDNQL [K3W]: 0.0299
TLKGRRLVFWNQL [D10W]: 0.127
TKKGRRLVFDNQL [L2K]: 0.141
TLKGRRLMFDNQL [V8M]: 0.0394
TLKGRRLVFDKQL [N11K]: 0.141
TLKGRRLVGDNQL [F9G]: 0.0994
TLHGRRLVFDNQL [K3H]: 0.0456
TLKGRRLVFLNQL [D10L]: 0.0328

Study 3
Target: RING finger protein unkempt homolog, zinc fingers 1-6, SBP tag (UNK, Homo sapiens, UniProt Q9C0B0, residues 30-357)
UniProt Q9C0B0, sequence (30-357, looked up): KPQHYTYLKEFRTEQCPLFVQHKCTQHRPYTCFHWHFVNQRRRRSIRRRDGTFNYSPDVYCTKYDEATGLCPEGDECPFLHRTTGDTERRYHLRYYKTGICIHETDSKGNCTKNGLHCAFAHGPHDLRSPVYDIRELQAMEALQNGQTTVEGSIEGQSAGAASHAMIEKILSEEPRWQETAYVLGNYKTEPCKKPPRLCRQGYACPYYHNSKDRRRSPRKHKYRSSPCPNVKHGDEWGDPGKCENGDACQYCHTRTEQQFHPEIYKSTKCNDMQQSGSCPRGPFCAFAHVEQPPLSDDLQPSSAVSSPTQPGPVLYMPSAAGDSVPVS
Technique: RNA Bind-n-Seq
Form: RNA
Sample: in vitro
Tested at: 100 nM
Notes: RNA with constant flanks, vertebrate orthologous sites, ends assumed
Baseline: input RNA pool
Reading: higher = stronger binding
Endpoint: bound/input enrichment
All sequences stand within: GGGAGUUCUACAGUCCGACGAUC … CAACAGAGGAUUGAGCAUCA
ACACGUAUAUUGUGGCAUAUAGUCAACACGGAAGUAGACCAGCUCUGCUGAUUUGAAAUUUAGAUUUUUUUUAAUUAUGUACUGGGGACAGGUUUUUGUCGCUUUACAUUGCUUCCUAGU: 4.91 ratio
CAUUGUAUCCUGCUGUAUAAUAAACAGUCUUAGACAUUUAUCAACUGUUGAUACAAAUCUUAGUCCCUAACCACUUUUUAUAUGUUUUAAAUUUUUGAAAUUCAAGUGUACCUGCCAUAA: 2.15 ratio
AUCUCGCGCUCCCCCUGUGAGGGAGUGGGGGGAGCCUGAGGACCCUCGGCUGGUCCAAGCCAGUAUCUGUUUUCUCCUUUUUUUUAAUGGCUGUAUUUAUUAUGACGAUGGCGACUCCCC: 1.04 ratio
CCAGUCUUCCACAUGGGGUCAGCCUCAAAUCUAUAGGAUUUUUGACAAAUGUAUUAUAUCUAGUUGUGUUGAAUUUAGUAUUUUUUUAUUAGCCUGUAAAUAAAGAUGGCCUCUCCUACA: 2.16 ratio
AGGGAGAAGAGCUCACAAACUCAAAGGGAAACUAUGAAAGAGUUUCUAAGAGUUAAAAGCUAGGAAAGAUUAGAACAAUUUUAGAAAUGAGCAGUUAAAAAGAAAAGAAAAAAAAAGAAA: 1.48 ratio
AAAUCAUGGCUGCUUAUUAGUGCCUCGGUGAGGUAAAGGCUCCCUGGCGUUCCCUGGUACCAGAGCCAGUCUCCCAAGAAGUCCUUGCGCAUUUCACUUCCUUUCCUUUCACAUGCAAGU: 0.374 ratio
CCCGCUAAACCCCAUUUCUUCUGUUUCAUAGUGCAGAAGUAUUCUUUCUCAGUUAUAUUUUAGUGGACUUGUUUUAAUUUUAGGGAAACUUCCAGUACAGAUACUGUGAGCUUACAUGGA: 2.12 ratio
CAUUGGGUUACUCUUAUUAUCAAGUAGCUGGAAUUGUGAAGGUCGGAGUAGUUAGAUCUUUAGCUUUUAUUCCUUAUUUUUUUGUAUUACUAUCCAUGUGUAUAAAUUAUUGAUCAUGUU: 2.4 ratio

Study 4
Molecule: PhoQ, residues 284 288 289 292 302 303 TNASYF
Technique: Sort-seq
Refers to: YFP reporter
Sample: E. coli
Notes: PhoQ-PhoP variant library
With: 10 µM Mg2+
Baseline: high Mg2+ state
Reading: higher = stronger signaling
Endpoint: fold induction
PhoP, residues 12 14 15 18 19 GMGLL (Escherichia coli, UniProt P23836): 1.73
PhoP, residues 12 14 15 18 19 QQAYL (Escherichia coli, UniProt P23836): 4.14
PhoP, residues 12 14 15 18 19 LFHKL (Escherichia coli, UniProt P23836): 3.09

Study 5
Target: ABI1, truncated, D143A, DHFR fusion (Arabidopsis thaliana)
Technique: DHFR PCA, deep sequencing
Sample: yeast
Notes: methotrexate growth selection, single substitutions
With: (+)-ABA 1.4 µM
Baseline: wild-type fitted maximum
Reading: higher = stronger binding
Endpoint: relative binding score
Starting sequence: PYL1, truncated, DHFR fusion (Arabidopsis thaliana); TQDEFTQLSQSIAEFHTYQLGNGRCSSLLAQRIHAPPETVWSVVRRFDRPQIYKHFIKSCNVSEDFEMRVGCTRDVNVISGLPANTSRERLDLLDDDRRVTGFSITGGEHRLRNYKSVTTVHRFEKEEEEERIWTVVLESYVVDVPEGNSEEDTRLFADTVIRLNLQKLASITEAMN; partner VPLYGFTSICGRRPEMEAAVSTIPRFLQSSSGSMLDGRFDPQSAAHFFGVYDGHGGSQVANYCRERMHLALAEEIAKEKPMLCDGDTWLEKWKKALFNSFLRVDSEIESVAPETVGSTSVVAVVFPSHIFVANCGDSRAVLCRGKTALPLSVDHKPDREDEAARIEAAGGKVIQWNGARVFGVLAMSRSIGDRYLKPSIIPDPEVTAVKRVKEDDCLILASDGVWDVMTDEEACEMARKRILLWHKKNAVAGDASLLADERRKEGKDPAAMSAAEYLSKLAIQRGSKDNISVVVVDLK
T120R: -3.16%
E139Y: 37.8%
T86E: 6.7%
L91M: 20.5%
S11K: 21.8%
V118C: 39.9%
A84P: 5.15%
T135G: 4.78%
Q2W: 54.9%
D159G: 2.03%
P36S: 57.2%
Y53L: -1.58%
E130Q: 58.9%
H55R: 83.8%
L20F: 23.8%
P83N: 14.5%
M68N: 24.7%
L156D: 5.14%
S63P: 66.1%
P36F: 9.9%

Repeated from above (study 1):
CGTAATGA: 0.0145
AGGTACAT: 0.149
CTGGTATC: -0.071
TAAGTACA: 0.281
CTCTCGGA: -0.131
GCGACCAC: -0.239
AGTCAATA: 0.184
AATGCATA: 0.259
GACGGGAA: -0.0556
AATGTACA: 0.209
CTCGTTGC: -0.0583
